Experimental data collected from several papers.
Numbered parts are unrelated; each lists some results of a single study. Substitutions count along the parent as printed.

Set 1
Target: ABI1, truncated, D143A, DHFR fusion (Arabidopsis thaliana)
Technique: DHFR PCA, deep sequencing
Medium: yeast
Setting: methotrexate growth selection, single substitutions
Added: (+)-ABA 0.11 µM
Reference: wild-type fitted maximum
Direction: higher = stronger binding
Endpoint: relative binding score
Starting sequence: PYL1, truncated, DHFR fusion (Arabidopsis thaliana); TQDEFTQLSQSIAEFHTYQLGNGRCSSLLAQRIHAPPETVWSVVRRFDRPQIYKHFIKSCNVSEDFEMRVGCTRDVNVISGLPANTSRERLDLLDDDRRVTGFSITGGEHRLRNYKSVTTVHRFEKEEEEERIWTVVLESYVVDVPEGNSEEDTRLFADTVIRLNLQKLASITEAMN
Variant = I172H; result = -4.41%
Variant = V76T; result = -1.65%
Variant = K168D; result = 10.9%
Variant = H34K; result = 42.1%
Variant = T73Q; result = 12.4%
Variant = H34N; result = 46.6%
Variant = I79C; result = 37.6%
Variant = E129V; result = 22.3%
Variant = F47Q; result = -3.16%
Variant = G108W; result = -1.23%
Variant = D96S; result = -6.53%
Variant = T73Y; result = 61.2%
Variant = P146K; result = -0.928%
Variant = Q19P; result = 47.9%
Variant = H16F; result = -8.11%
Variant = E129Q; result = 27.4%
Variant = K54Q; result = 10.7%

Set 2
Target: Ras GTPase-activating protein-binding protein 1, RRM domain (G3BP1, Homo sapiens, UniProt Q13283)
Sequence of UniProt Q13283 (whole entry, looked up): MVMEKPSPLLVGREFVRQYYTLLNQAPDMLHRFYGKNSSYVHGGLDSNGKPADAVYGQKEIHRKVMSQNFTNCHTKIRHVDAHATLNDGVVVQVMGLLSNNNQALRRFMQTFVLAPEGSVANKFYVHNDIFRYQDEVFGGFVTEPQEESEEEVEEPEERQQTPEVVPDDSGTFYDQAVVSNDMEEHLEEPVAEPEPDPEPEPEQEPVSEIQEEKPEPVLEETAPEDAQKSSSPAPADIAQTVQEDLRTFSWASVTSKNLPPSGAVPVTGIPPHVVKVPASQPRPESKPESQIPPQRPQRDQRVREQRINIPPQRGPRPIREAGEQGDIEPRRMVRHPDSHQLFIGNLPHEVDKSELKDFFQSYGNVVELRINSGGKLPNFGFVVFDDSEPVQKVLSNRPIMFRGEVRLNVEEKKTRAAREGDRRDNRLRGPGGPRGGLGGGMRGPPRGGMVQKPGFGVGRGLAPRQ
Technique: RNA Bind-n-Seq
Form: RNA
Medium: in vitro
Concentration: 1 µM
Setting: whole 134-nt RNA, ends assumed
Added: 150 mM KCl
Reference: input library
Direction: higher = stronger binding
Endpoint: log2 enrichment
Shared flanks, not repeated: GGGAGUUCUACAGUCCGACGAUC … UGGAAUUCUCGGGUGUCAAGG
Strand = AAGUCCUGUGCUACACAUCGUAUGUACCGAAUCGGGGAAAGGGAAAGGGAAAGGGGAAAGUAUUAUGUUACGCCGUUCGGAUCUGCACUU; result = 0.399
Strand = CCUGUGCUACACAUCGUAUGUACCGAAUCGGGAAAAAAAGGGGAAAAAAAGGAAAAAAAGGAAAGUAUUAUGUUACGCCGUUCGGAUCUG; result = 0.0439
Strand = UGGCCCUGGUGGCAUGCGGGGAGGAAGAGGUGGCCUCAUGGAUCGUGGUGGUCCCGGUGGAAUGUUCAGAGGUGGCCGUGGUUGAGACAG; result = 2.23
Strand = GUCCUGUGCUACACAUCGUAUGUACCGAAUCGGGGUUUUUGGGGAAAAAGGGGAGGGGAAAGUAUUAUGUUACGCCGUUCGGAUCUGCAC; result = 0.942
Strand = GCAGGAAGUAAAAACAAAUGGAAAUGCUUCGGAUCGUGGCAGGGGUGGGGGUUGCUAAGGAAAGGGUGGGAUGGGAGUGGGUAAAGAGUU; result = 1.71
Strand = UGCUGGUGAGCUGCUGCCUGGCAGGCCACGUCUGCGUGUGGGACGCGCAGACCGGGGAUUGCCUAACGCGCAUUCCGCGCCCAGGGUAGG; result = -0.673
Strand = CUCAAGUCCUGUGCUACACAUCGUAUGUACCGAAUCGGGAGGGAGGGGAGGGGAAAGUAUUAUGUUACGCCGUUCGGAUCUGCACUUCCA; result = 1.1
Strand = CCUCAAGUCCUGUGCUACACAUCGUAUGUACCGAAUCGGUGGUGGAAAAAGGAAAGUAUUAUGUUACGCCGUUCGGAUCUGCACUUCCAG; result = -0.0741
Strand = UCCUGUGCUACACAUCGUAUGUACCGAAUCAAAUUUUUUUAAACCCCCCCAAACCCAAAAAAGUAUUAUGUUACGCCGUUCGGAUCUGCA; result = -1.01
Strand = CAAGUCCUGUGCUACACAUCGUAUGUACCGAAUCGGGGUUUGGGGUUUGGUUUGGAAAGUAUUAUGUUACGCCGUUCGGAUCUGCACUUC; result = -0.42
Strand = UCUCCCAUCAAAGGACGUGCACAGCCUUAUGAUCCCAAUUUUUACGAUGAAACCUAUGAUUAUGGUGGUUUUACAAUGAUGUUUGAUGAC; result = 0.0572
Strand = CAAGUCCUGUGCUACACAUCGUAUGUACCGAAUCGGGUUUGGGGUUUGGGGUUUGGAAAGUAUUAUGUUACGCCGUUCGGAUCUGCACUU; result = -0.462
Strand = AGUCCUGUGCUACACAUCGUAUGUACCGAAUCGGAAAAAGGUUUUUGGAAAAAAAGGAAAGUAUUAUGUUACGCCGUUCGGAUCUGCACU; result = -0.111
Strand = AGGAAAAUGUUUAUAGGAGGCCUUAGCUGGGACACUACAAAGAAAGAUCUGAAGGACUACUUUUCCAAAUUUGGUGAAGUUGUAGACUGC; result = -0.0723

Set 3
Target: CCND2, cyclin fold, Cln2 fusion (human)
Technique: yeast growth competition, sequencing
Medium: yeast
Setting: weak parent motif
Reference: not given
Direction: higher = stronger binding
Endpoint: normalised enrichment score
Starting sequence: CDC25A docking peptide (human); PPHRRRLLFACSP
Variant = PPHRRRLLNACSP [F9N]; result = 0.185
Variant = PPHRRRLLFACIP [S12I]; result = 0.129
Variant = PEHRRRLLFACSP [P2E]; result = 0.265
Variant = PPHRRRRLFACSP [L7R]; result = -0.0754
Variant = PPHRRRLLFACHP [S12H]; result = -0.125
Variant = PPHRRRLLCACSP [F9C]; result = -0.0478
Variant = PPHRRRLLRACSP [F9R]; result = 0.467
Variant = PPHRRRLLFADSP [C11D]; result = -0.234
Variant = PPHRRRLLFHCSP [A10H]; result = 0.0383
Variant = PPHRGRLLFACSP [R5G]; result = 0.229
Variant = PPHRRRLLFACSH [P13H]; result = 0.238
Variant = PPHRYRLLFACSP [R5Y]; result = -0.288
Variant = PPHRRRLLFYCSP [A10Y]; result = -0.383
Variant = PPHRRRLLFATSP [C11T]; result = -0.132
Variant = PPHRRRLWFACSP [L8W]; result = 0.18

Set 4
Target: RNA binding protein fox-1 homolog 2, RRM domain, GST-SBP tag (RBFOX2, Homo sapiens, UniProt O43251-10, residues 100-194)
Technique: RNA Bind-n-Seq
Form: RNA
Medium: in vitro
Concentration: 365 nM
Setting: natural RNA segment, single round, ends assumed
Reference: no-protein control
Direction: higher = stronger binding
Endpoint: RBNS enrichment (R)
Shared flanks, not repeated: GGGAGUUCUACAGUCCGACGAUC … UGGAAUUCUCGGGUGCCAA
Construct (chain): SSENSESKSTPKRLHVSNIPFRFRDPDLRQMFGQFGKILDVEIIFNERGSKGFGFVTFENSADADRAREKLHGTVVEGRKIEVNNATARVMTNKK
Strand = GAAAAGUGAGAUGUCUUCACGCUAAGGCUCCAGUGUUCUGUCAGAGACCUGAAUGCUCUAUUUGCCCAAUGCUUCCAGACUCUUAGCUGUUCUGCCCAGCCCCCGUCCCG; result = 0.358
Strand = UUGGCCAAUGUAUUUCAGAGAAAGAAGUAAAGCAGGAAAGAAGCCCCCAGUAAACACUAAGAUGGACCUCAAGCCGACUGGUUCCUUGUACUUGAAGUACUUGCCUUUUU; result = 0.419
Strand = AUCAGUGGGGCAGUGUUACCAUAAACACGGUGUAUAUGUUGUUAAACCCUAUGAAGAGUAACAGUGUAGACCAGACUGCCUCUCUCAGAUAUGUGCCUGAUAUUUUGUGG; result = 0.677
Strand = GCUGGCUCUCAAACUUGAUGCUCUUGCCUCAGCCUUCCAGUGCUGAAAUUUCAGGCUGCUGCAAACAGCCAUACCUGGCAAGAGAAGUCUUCUAAUCUGGAAACCUGUGA; result = 0.301
Strand = GCCGCUGAGAUCCAGUGUCCAAGCUGCGGCCAGGAGUCCACCCACCUCCGCAUCCACCCCCGUCCGCCAUCCUGCCCACCACCAGGUCGGUUCCCGAGGCCUGGCCUUUC; result = 0.843
Strand = CUAGGCAGGUUUGACAAAGGUCAGUAAUACGGUUUCCCCUGGGGUUGACCAGAUGUUCCAAAAUAUCUGCAUCCACCUGGAGAUGCAGCUAAGUGGGUCCUUAUGUACAC; result = 0.888
Strand = CUGCCUUCCCCUUCUAAGGAAGAACUGAGUGGGUAAGGGACAGGUGUGUAAAAUCUCCAAAUGGAUGUUACAGCUUUCAGCUUGAACGUUUGUUUCCAGACCUGAUUAAA; result = 0.222
Strand = AUCCGUCACAUUCAUCUCAUAAUAGAAACACGUUCAUAUUCCAGUGGUCAAUGUAGAUUUCAAGUUGAAAGGCAGUCCCUUUAGUUGGGGGCUGUCCAGAGCUGCAGCAG; result = 0.337
Strand = ACAGCUCCUGCUGUGACUGAGGGACGGGGUGUAUCUGGCCUACCCUAGUUGUUGCAGAAUCCUUCCCCAGGAGCCCCUUCACUCCUGCUGGGGUAGUCACCAGCUUACUG; result = 0.35
Strand = GUGCCUAGAAUGGGCUCUUUAUCCAGUAGACACCACUGUACUUUUUGAUACGAGGGCAGUCUUAACUUGUGUUAAGGCCUGUGUGUAGCAUUGAAGGGAGGAGUUGCUUA; result = 0.247
Strand = GACCCUGACUCUAAUACCACACAAAACAGAACAAAAAUCCAGCAAAGAUAGGAUCGGAGAUACCUGUAGUCUUCAGACCUUUAGUGCCUGUAUUUAUCCAUCAUUACUGA; result = 0.575
Strand = GAGCCAGUCCCCACCUAGUCCCGUCCCUGCCACCUACACCCAAGGUCUUCAGCUUUAAGUUGCUGGGGCCAGGCCCCGAGGAGGGUUUACUGAGGGGUCUGUAGGUUUGA; result = 0.39

Set 5
Target: Histone acetyltransferase KAT6A, both winged helices, GST fusion (KAT6A, Homo sapiens, UniProt Q92794, residues 1-181)
Technique: protein binding microarray
Form: double-stranded DNA, one strand shown
Medium: in vitro
Concentration: not given
Setting: 8-mer, flanks averaged, mean of 2 arrays, mostly near background
Reference: not given
Direction: higher = stronger binding
Endpoint: E-score
Residues (chain): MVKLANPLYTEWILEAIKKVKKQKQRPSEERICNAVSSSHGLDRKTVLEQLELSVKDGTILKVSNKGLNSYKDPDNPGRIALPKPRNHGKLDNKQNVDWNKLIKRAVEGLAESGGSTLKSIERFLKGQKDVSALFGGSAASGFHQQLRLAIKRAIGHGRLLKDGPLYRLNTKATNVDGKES
Strand = CCTTAAAC; result = -0.00213
Strand = CCGCACGG; result = 0.33
Strand = AGCCCAAC; result = -0.206
Strand = AGTAAGTG; result = -0.0649
Strand = CGCGAATA; result = 0.197
Strand = AGGAAGAT; result = -0.165
Strand = TCCTCTCA; result = -0.301
Strand = TGCCTAAA; result = -0.213
Strand = ACAGGAAC; result = -0.086
Strand = GCAGAAAC; result = 0.0689
Strand = TCAGTTCA; result = -0.068
Strand = AGCCCTTG; result = -0.185
Strand = GGCGGTAA; result = 0.284
Strand = CGGGAAGA; result = 0.275
Strand = CGGACGAA; result = 0.233
Strand = ATATGCTG; result = -0.0561
Strand = CAACCGAA; result = 0.0371
Strand = AACCATGT; result = -0.0979
Strand = GACTGAAA; result = -0.0302
Strand = CGGGGACG; result = 0.143
Strand = ACATACGA; result = -0.015
Strand = AAGAGTGA; result = -0.235
Strand = ATTGCAGG; result = -0.106
Strand = GGGTTCAC; result = 0.206
Strand = GAACGCAC; result = 0.079

A few entries again (set 5):
Strand = AGTAAGTG; result = -0.0649
Strand = CGCGAATA; result = 0.197
Strand = AGGAAGAT; result = -0.165
Strand = TCCTCTCA; result = -0.301
Strand = TGCCTAAA; result = -0.213
Strand = ACAGGAAC; result = -0.086
Strand = GCAGAAAC; result = 0.0689
Strand = TCAGTTCA; result = -0.068
Strand = AGCCCTTG; result = -0.185
